# Assay results gathered from unrelated publications.
# Numbered parts are unrelated; each lists some results of a single study. Substitutions count along the parent as printed.

# Sample 1
# Target: RNA binding protein fox-1 homolog 2, RRM domain, GST-SBP tag (RBFOX2, Homo sapiens, UniProt O43251-10, residues 100-194)
# Technique: RNA Bind-n-Seq
# Molecule type: RNA
# Sample: in vitro
# Tested at: 365 nM
# Notes: natural RNA segment, single round, ends assumed
# Baseline: no-protein control
# Reading: higher = stronger binding
# All sequences stand within: GGGAGUUCUACAGUCCGACGAUC … UGGAAUUCUCGGGUGCCAA
# Residues (chain): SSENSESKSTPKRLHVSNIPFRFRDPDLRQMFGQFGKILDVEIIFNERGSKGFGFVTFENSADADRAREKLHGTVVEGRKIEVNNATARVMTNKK
Strand,RBNS enrichment (R)
ACCUCUUGCUGCCAGCACCCAACAGCCUUGCCGUGGGGACCUUGGAAACCUGGCUUUGCUCUGGACAAAGGGUUCCAGAGAGAAGCUAGAAGUCCCCCUUGAAUGACCCC,1.41
ACGCAGCCAGGCAUUCAGGGGUGUGUUUGCCACAUGGAGCAUCCCUUCCUGGUCUUGCCAGGCACCUGCACAGAGCGUCUCCAGCCCCAUCUCCUAACGGGGGCUGGGGG,0.504
GCGGGCAUCUGUGCGUGCGAGGAGACCCCUUCUCUCGGCCAAGUUUUUUCCCAUAACACCCACAUGGAUUUGUGAAGACGUGCUUCUCAGAAGCAAGGACUCAAAAAGCA,3.82
GGGCAGGGGAACCCCAAAGUAAGGUGCCAUGGUGUUUGGCACUCAAGAUUUAGCUCACCCUUGAACUGUCCAAGUGCCCGCAGUCCCUAGACUCAUCCCCGUGGGCUAGG,0.956
UGGGGGUUUUCAAUGUGAAACACAUGCCAGUUUUUAAAAUGCUGCUUUGUCCAGGUGAGAACAUCCAUAAUUUGGGGCCCUGAGUUUUACCCAGACUCAAGGAGUUGGUA,0.345
CUGUUGGAUCAACAAAUAAAGGUUACAGUUUUGUAAGAGAAGUGAUUUGAAUACAUUUUUCUGGAACUAUUCAUAAUAUGAAGUUUUCCUAGAACCACUGAGUUUCUAGU,0.325
GGCUGGAAGCCCUCCCUCCACUUAAGUUAUUGUUUUAAACCAAAGUUUACAGUGUCUGUUGGUGGCCAAGACCUUCUCUCUCCACCCCUCCUCCAUCCACCCUGAGGACC,0.961
CCAAAGAUCUUUUUGUUUUGGCUUUAGUAUCAUAUGUGCUUUUUCUGUAUCCUGAGCGCUCUAUAUGAUCAUGUUAAUUUAAAGCUUUAUACACAUUGUUGUUUUUGCUG,0.472
UCAUUAUCGAUGAAAGUGAUGUAUCUUCACCUACCAUUUUCCUAAUAAAGUUCUGUAUUCAAAUAUAGCUGCCAAGCAUCCUCAGUGAAUGUUACCAUGUGGAAUUUUCC,2.55
GUCAGCCAGGGGCCAGUCAGCCCAGCAGUCUCCCCUGCUCCCUGACAUGAGUUCCUAAAGGGCACUGAAAAGGGCACCUCCUUCCUGUGUCUGCCUCCACUGCACCCCCA,0.67
UGUUCUUCUCGUGGGUUUGUGCCGUGCUGCUUUCCAAAUAGGUAUUGAAUUUAUGCAUUAGUCUGGUGAUUUCAGUUCUGUGAAAUAUUUUGGGAUCUAUACCAAUUAAA,0.706
UAGCUGGCAGAGUGGUAUCAAAGGAGAAAAACAGUGAAAAAGCCAAUUUCACUGGUUCGUUCAAUCCAGCUUGUUGCUAAUAUUAGUUACCCUUGUUUUAAUGACAGAGA,0.432

# Sample 2
# Target: CCNE2, cyclin fold, Cln2 fusion (human)
# Technique: yeast growth competition, sequencing
# Sample: yeast
# Notes: strong parent motif
# Baseline: not given
# Reading: higher = stronger binding
# Starting sequence: E2F2 docking peptide (human); LPAKRKLDLEGIG
Substitution,normalised enrichment score
L1A,1.08
D8A,0.552
L7A,0.237
R5K L9F,2.06
K6A,0.849
K4A,0.749
G11A,0.772

# Sample 3
# Target: ABI1, truncated, D143A, DHFR fusion (Arabidopsis thaliana, UniProt P49597)
# Technique: DHFR PCA, dose-response
# Sample: yeast
# Notes: Hill fit, mean, not affinity
# With: (+)-ABA, dose series
# Reading: lower = more sensitive
# Starting sequence: PYL1, truncated, DHFR fusion (Arabidopsis thaliana, UniProt Q8VZS8); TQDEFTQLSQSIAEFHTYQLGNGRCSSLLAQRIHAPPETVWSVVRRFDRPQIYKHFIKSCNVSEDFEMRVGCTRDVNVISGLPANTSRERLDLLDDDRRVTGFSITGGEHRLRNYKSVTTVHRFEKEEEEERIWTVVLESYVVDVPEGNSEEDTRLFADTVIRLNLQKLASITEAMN
Substitution,ABA EC50
A175E,2.24 µM
D92H,104 µM
S80K,55.1 µM
H34D,2.3 µM
G107K,73.5 µM
R32N,9.3 µM
S171D,1.7 µM
L156M,1.63 µM
I12P,244 µM
G107R,94 µM
W134R,9.44 µM

# Sample 4
# Target: UBE2O UBC core domain (UniProt Q9C0C9)
# Technique: yeast two-hybrid
# Sample: yeast
# Notes: mostly zero background
# Baseline: not given
# Reading: higher = stronger interaction
# B1: TRIM52 RING domain (UniProt Q96A61); chain PMQTLQEEAVCAICLDYFKDPVSISCGHNFCRGCVTQLWSKEDEEDQNEEEDEWEEEEDEEAV
# B2: TRIM15 RING domain (UniProt Q9C019); chain SLKVVHELPACTLCAGPLEDAVTIPCGHTFCRLCLPALSQMGAQSSGKILLCPLCQEEEQAETPMA
# B3: ANKIB1 RING domain (UniProt Q9P2G1); chain LSPGDLDTSLCDICMCSISVFEDPVDMPCGHDFCRGCWESFLNLKIQEGEAHNIFCPAYDCFQLVPVDIIE
# B4: RNF4 RING domain (UniProt P78317); chain TGLRPSGTVSCPICMDGYSEIVQNGRLIVSTECGHVFCSQCLRDSLKNANTCPTCRKKINHKRYHP
# B5: TRIM35 RING domain (UniProt Q9UPQ4); chain PSRSFKEELLCAVCYDPFRDAVTLRCGHNFCRGCVSRCWEVQVSPTCPVCKDRASPADLRT
# B6: RNF175 RING domain (UniProt Q8N4F7); chain LPTRSLSDNICAVCGQKIIVELDEEGLIENTYQLSCNHVFHEFCIRGWCIVGKKQTCPYCKEKVDLKRMIS
# B7: RNF32 RING domain (UniProt Q9H0A6); chain SLLQGDSVQPCPICKEEFELRPQVLLSCSHVFHKACLQAFEKFTNKKTCPLCRKNQYQTRVIH
# B8: TRIM55 RING domain (UniProt Q9BYV6); chain TMDNLEKQLICPICLEMFTKPVVILPCQHNLCRKCASDIFQASNPYLPTRGGTTMASGGRFRCPSCRHEVVLDRHG
# B9: PEX2 RING domain (UniProt P28328); chain DNTLATSGKECALCGEWPTMPHTIGCEHIFCYFCAKSSFLFDVYFTCPKCGTEVHSLQPLK
# B10: NSMCE1 RING domain (UniProt Q8WV22); chain RETYPDAVKICNICHSLLIQGQSCETCGIRMHLPCVAKYFQSNAEPRCPHCNDYWPHEIPKV
# Construct (chain): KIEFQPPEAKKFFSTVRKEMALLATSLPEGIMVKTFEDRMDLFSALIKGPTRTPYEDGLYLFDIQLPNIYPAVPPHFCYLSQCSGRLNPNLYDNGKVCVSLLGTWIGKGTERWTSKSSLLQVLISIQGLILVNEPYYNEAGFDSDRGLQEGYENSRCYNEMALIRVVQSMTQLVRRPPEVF
Sequence,lacZ reporter activity
B1 (TRIM52 RING domain),0
B2 (TRIM15 RING domain),0
B3 (ANKIB1 RING domain),0
FLKKLEQSFMCVCCQELVYQPVTTECFHNVCKDCLQRSFKAQVFSCPACRHDLGQNYIMI (UHRF2 RING domain (UniProt Q96PU4)),0
B4 (RNF4 RING domain),0
B5 (TRIM35 RING domain),0
B6 (RNF175 RING domain),0
B7 (RNF32 RING domain),0
B8 (TRIM55 RING domain),0
B9 (PEX2 RING domain),0
B10 (NSMCE1 RING domain),0
KRQCSDVDDICSICQAEFQKPILLICQHIFCEECMTLWFNREKTCPLCRTVISDHINKW (RNFT1 RING domain (UniProt Q5M7Z0)),0

# Sample 5
# Target: FOSB, bZIP domain (human)
# Technique: DHFR protein complementation
# Sample: yeast
# Notes: single substitutions, most at no-binding floor
# Baseline: wild-type JUN-FOS pair
# Reading: higher = stronger binding
# Starting sequence: JUN, bZIP domain (human); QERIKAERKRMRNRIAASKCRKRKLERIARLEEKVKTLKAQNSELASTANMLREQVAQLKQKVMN; partner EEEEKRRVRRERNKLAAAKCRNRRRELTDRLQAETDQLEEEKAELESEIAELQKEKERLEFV
Substitution,binding fitness
Q41G,-0.113 natural log
E32V,-0.137 natural log
E54T,-0.197 natural log
V56L,-0.462 natural log
R53K,-0.142 natural log
L31C,-0.705 natural log
E33N,-0.27 natural log
R30H,0.0706 natural log
V35W,-0.411 natural log
R53G,-0.966 natural log
Q55E,-0.0722 natural log
A49E,-1.13 natural log
E54V,-0.289 natural log
S43A,0.0847 natural log

# For quick reference, copied from above (sample 5):
Substitution,binding fitness
Q41G,-0.113 natural log
E32V,-0.137 natural log
E54T,-0.197 natural log
V56L,-0.462 natural log
R53K,-0.142 natural log
L31C,-0.705 natural log
E33N,-0.27 natural log
